Experimental data pooled from the literature.
Parts stem from different laboratories: compare values within a part only. Several values in a cell are separate wells, animals, samples, runs or records.

Set 1
Organism: Sarcocystis neurona
Observed: parasite growth
Tested at: 10 µM
Time: 96 h
Setting: first screen
Baseline: untreated
`CCCCCCCCCCC[C@@H](C[C@@H]1OC(=O)[C@H]1CCCCCC)OC(=O)[C@H](CC(C)C)NC=O` — result for “log2 fold change”: -0.49.
For `O=C(O)CCNC(=O)c1ccc(/N=N/c2ccc(O)c(C(=O)O)c2)cc1`, “log2 fold change” read 0.17.
`CC(=O)[C@]1(O)Cc2c(O)c3c(c(O)c2[C@@H](O[C@H]2C[C@H](N)[C@H](O)[C@H](C)O2)C1)C(=O)c1ccccc1C3=O` — result for “log2 fold change”: -5.38.
Under “log2 fold change”, `CC(=O)CCCCn1c(=O)c2c(ncn2C)n(C)c1=O` is recorded as 0.11.
Under “log2 fold change”, `COC(=O)C[C@](O)(CCCC(C)(C)O)C(=O)O[C@@H]1C(OC)=C[C@]23CCCN2CCc2cc4c(cc2[C@H]13)OCO4` is recorded as -9.19.
For `Nc1nc2c(ncn2CCC(CO)CO)c(=O)[nH]1`, “log2 fold change” read -0.06.
`CCCN1C[C@H](CSC)C[C@@H]2c3cccc4[nH]cc(c34)C[C@H]21` — result for “log2 fold change”: 0.0568.

Set 2
Target: 5-hydroxytryptamine receptor 5A (HTR5A, Homo sapiens, UniProt P47898)
Chain of UniProt P47898 (whole entry, looked up): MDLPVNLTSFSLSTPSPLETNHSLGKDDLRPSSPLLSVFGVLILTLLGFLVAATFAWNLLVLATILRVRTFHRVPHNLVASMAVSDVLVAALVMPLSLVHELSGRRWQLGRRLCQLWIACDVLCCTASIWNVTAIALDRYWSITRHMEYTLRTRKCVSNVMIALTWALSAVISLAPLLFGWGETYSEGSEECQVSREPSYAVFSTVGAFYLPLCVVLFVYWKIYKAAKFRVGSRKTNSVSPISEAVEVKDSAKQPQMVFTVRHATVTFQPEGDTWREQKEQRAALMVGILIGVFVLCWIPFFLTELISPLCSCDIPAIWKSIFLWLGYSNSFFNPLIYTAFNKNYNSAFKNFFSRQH
Observed: cell-free assay
Tested at: 10 µM
With `NS(=O)(=O)c1cc(NC(=O)C2(c3ccccc3Cl)CC2)ccc1Oc1cccc(Cl)c1` the inhibition was 5.57%.
The inhibition of `O=C([C@H]1C[C@H](O)CN1c1ccc(Cl)cc1)N1CC2COCC(C1)N2Cc1ccc(Cl)cc1` is reported as -1.82%.
`CCOCCn1cc(C(=O)Nc2ccc(-n3nc(-c4cccnc4)cc3C(F)(F)F)cn2)ccc1=O` has an inhibition of -16.3%.
With `O[C@]1(C(F)(F)F)CCCC[C@H]1Nc1ccc(F)cc1` the inhibition was -7.74%.
The inhibition of `COc1ccc2c(c1)O[C@@H](c1ccc(OC)c(OC)c1)C[C@H]2NC(=O)C1(c2ccc3c(c2)OC(F)(F)O3)CC1` is reported as -17.4%.

Set 3
Target: Mitogen-activated protein kinase kinase kinase kinase 4 (MAP4K4, Homo sapiens, UniProt O95819)
Chain of UniProt O95819 (whole entry, looked up): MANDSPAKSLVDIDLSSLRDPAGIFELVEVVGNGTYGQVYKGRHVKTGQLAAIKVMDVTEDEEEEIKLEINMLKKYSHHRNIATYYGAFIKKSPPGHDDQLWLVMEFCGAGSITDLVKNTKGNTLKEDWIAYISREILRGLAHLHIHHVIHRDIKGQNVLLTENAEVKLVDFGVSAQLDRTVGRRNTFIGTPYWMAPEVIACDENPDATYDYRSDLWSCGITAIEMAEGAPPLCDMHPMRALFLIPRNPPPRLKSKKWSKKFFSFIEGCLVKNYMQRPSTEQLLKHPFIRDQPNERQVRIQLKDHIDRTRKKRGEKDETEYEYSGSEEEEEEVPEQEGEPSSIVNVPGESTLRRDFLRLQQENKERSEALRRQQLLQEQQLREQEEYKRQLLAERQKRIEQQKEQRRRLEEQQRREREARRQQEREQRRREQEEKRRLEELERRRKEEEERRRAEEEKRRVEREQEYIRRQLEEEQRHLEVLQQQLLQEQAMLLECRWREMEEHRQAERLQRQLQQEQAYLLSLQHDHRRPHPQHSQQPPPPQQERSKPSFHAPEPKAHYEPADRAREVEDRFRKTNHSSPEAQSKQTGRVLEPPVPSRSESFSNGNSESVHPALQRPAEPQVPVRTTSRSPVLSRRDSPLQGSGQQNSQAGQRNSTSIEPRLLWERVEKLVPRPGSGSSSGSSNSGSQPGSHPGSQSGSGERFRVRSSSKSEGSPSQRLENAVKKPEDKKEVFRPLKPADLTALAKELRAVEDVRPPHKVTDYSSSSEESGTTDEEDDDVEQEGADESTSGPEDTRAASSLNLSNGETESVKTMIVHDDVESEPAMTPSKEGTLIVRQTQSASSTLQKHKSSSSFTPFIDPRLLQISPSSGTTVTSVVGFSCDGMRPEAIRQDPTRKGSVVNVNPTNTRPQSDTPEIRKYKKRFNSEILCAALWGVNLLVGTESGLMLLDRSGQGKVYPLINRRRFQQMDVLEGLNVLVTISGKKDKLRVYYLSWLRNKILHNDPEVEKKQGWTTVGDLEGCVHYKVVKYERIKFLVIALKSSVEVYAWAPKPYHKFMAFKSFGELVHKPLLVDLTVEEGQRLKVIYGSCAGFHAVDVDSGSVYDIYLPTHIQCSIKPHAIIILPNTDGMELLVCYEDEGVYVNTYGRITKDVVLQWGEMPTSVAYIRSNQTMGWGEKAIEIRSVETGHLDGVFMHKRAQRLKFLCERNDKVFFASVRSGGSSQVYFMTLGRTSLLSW
Observed: enzyme activity
Action: inhibitor
Tested at: 0.5 µM
Baseline: control
For `O=C1NC(=O)C(c2cn(CCCn3ccnc3)c3ccccc23)=C1Nc1ccccc1`, the remaining activity was 64%.
For `CC(C)[C@H](CO)Nc1nc(Nc2cc(N)cc(Cl)c2)c2ncn(C(C)C)c2n1`, the remaining activity was 86.1%.
The remaining activity of `COc1cc2ncnc(Nc3ccc(Oc4ccccc4)cc3)c2cc1OC` is reported as 90.5%.
The remaining activity of `COc1ccc(C(=O)Nc2sc3c(c2C(N)=O)CCCC3)cc1OC` is reported as 79.9%.
`NCCNc1ncc(C(N)=O)c(Nc2cccc(C(F)(F)F)c2)n1` has a remaining activity of 48.4%.
`COc1ccc(CNC(=O)Nc2ncc([N+](=O)[O-])s2)cc1` has a remaining activity of 98.8%.
The remaining activity of `O=S(=O)(c1cccc2cnccc12)N1CCCNCC1` is reported as 44.1%.
For `COc1ccc(OC)c2c(=S)c3ccccc3[nH]c12`, the remaining activity was 101%.
`O=C(CCCc1ccc(-c2ccccc2F)cc1)Nc1ccc(O)cc1` gave a remaining activity of 92.9%.
With `Nc1[nH]nc2nc3ccccc3nc12` the remaining activity was 76.2%.
For `OCC(O)CCON=C1C(c2c(O)[nH]c3ccccc23)=Nc2ccccc21` (stereo not shown), the remaining activity was 11.6%.
`C#Cc1cccc(Nc2ncnc3cc(OCCOC)c(OCCOC)cc23)c1` gave a remaining activity of 76.5%.
With `N#CC(C#N)=C(N)/C(C#N)=C/c1ccc(O)cc1` the remaining activity was 91.2%.
`CNC(=O)c1cc(Oc2ccc(NC(=O)Nc3ccc(Cl)c(C(F)(F)F)c3)cc2)ccn1` has a remaining activity of 96.1%.

Set 4
Cell line: mouse MPNST tumor cells
Technique: high-content nuclear imaging
Refers to: cell number
Tested at: 10 µM
Time: 12 h
Setting: mean of 2 replicates
Baseline: plate mean
Reading: higher = more cells
For `CC(CCc1ccc(O)cc1)NCCc1ccc(O)c(O)c1` (stereo not shown), the nuclei count was 2.7 z-score and 2.07 z-score.
With `CC(C)(C)CC(=O)Nc1c(F)cc(C(=O)N=c2sccn2COP(=O)(O)O)cc1F` the nuclei count was 1.01 z-score.
With `NC(=O)c1ccc(N(C(N)=O)c2c(F)cccc2F)nc1-c1ccc(F)cc1F` the nuclei count was 0.868 z-score.
With `Cc1cc(C)c(S(=O)(=O)N(Cc2ccc(-c3cccc(S(C)(=O)=O)c3)cc2)Cc2ccc(C(F)(F)F)o2)c(C)c1` the nuclei count was 1.69 z-score.
The nuclei count of `c1ccc(N2CCN(CCCOc3ccc4c(c3)OCO4)CC2)cc1` is reported as -0.817 z-score.

A few entries again (set 1):
`CC(=O)[C@]1(O)Cc2c(O)c3c(c(O)c2[C@@H](O[C@H]2C[C@H](N)[C@H](O)[C@H](C)O2)C1)C(=O)c1ccccc1C3=O` — result for “log2 fold change”: -5.38.
Under “log2 fold change”, `COC(=O)C[C@](O)(CCCC(C)(C)O)C(=O)O[C@@H]1C(OC)=C[C@]23CCCN2CCc2cc4c(cc2[C@H]13)OCO4` is recorded as -9.19.
`CCCN1C[C@H](CSC)C[C@@H]2c3cccc4[nH]cc(c34)C[C@H]21` — result for “log2 fold change”: 0.0568.
`CCCCCCCCCCC[C@@H](C[C@@H]1OC(=O)[C@H]1CCCCCC)OC(=O)[C@H](CC(C)C)NC=O` — result for “log2 fold change”: -0.49.
Under “log2 fold change”, `CC(=O)CCCCn1c(=O)c2c(ncn2C)n(C)c1=O` is recorded as 0.11.
